{"data": "Experimental data from different studies", "note": "Each numbered part is a random draw from the data of one study; scales do not carry over between parts."}
{"data": "Sample 1", "target": "Histone acetyltransferase KAT6A, winged helix 1, GST fusion (KAT6A, Homo sapiens, UniProt Q92794, residues 1-85)", "technique": "protein binding microarray", "form": "double-stranded DNA, one strand shown", "sample": "in vitro", "concentration": "not given", "setting": "8-mer, flanks averaged, mean of 2 arrays, mostly near background", "baseline": "not given", "direction": "higher = stronger binding", "Residues (chain)": "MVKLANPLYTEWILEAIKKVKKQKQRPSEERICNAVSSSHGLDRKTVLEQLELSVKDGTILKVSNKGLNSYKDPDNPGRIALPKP"}
{"Strand": "AGCAACGC", "E-score": 0.083}
{"Strand": "GACTCTAC", "E-score": -0.165}
{"Strand": "CTCCAAAA", "E-score": -0.156}
{"Strand": "CTACTGCC", "E-score": 0.106}
{"Strand": "ATTTGGCG", "E-score": -0.0805}
{"Strand": "ACGTACGG", "E-score": 0.313}
{"data": "Sample 2", "target": "Prothrombin, mature alpha-thrombin (F2, Homo sapiens, UniProt P00734)", "technique": "aptamer microarray, sandwich", "form": "DNA with 2'F-ANA", "sample": "in vitro", "concentration": "200 nM", "setting": "whole 15-mer aptamer, many near background", "added": "Cy3 exosite-II aptamer, 400 nM", "direction": "higher = stronger binding", "strand": "GGTTGGTGTGGTTGG"}
{"Modification": "2'F-ANA at 1 4 5 6 8 10 12 13 14 15", "mean fluorescence intensity": "48.6 a.u."}
{"Modification": "2'F-ANA at 1 3 4 5 10 11 12 14", "mean fluorescence intensity": "46.9 a.u."}
{"Modification": "2'F-ANA at 1 2 3 4 5 6 10 11 14", "mean fluorescence intensity": "48 a.u."}
{"Modification": "2'F-ANA at 2 3 4 5 10 14 15", "mean fluorescence intensity": "49 a.u."}
{"Modification": "2'F-ANA at 4 5 6 8 10 11 12 15", "mean fluorescence intensity": "50.5 a.u."}
{"Modification": "2'F-ANA at 2 5 7 9 12 13", "mean fluorescence intensity": "103 a.u."}
{"data": "Sample 3", "target": "RNA binding protein fox-1 homolog 2, RRM domain, GST-SBP tag (RBFOX2, Homo sapiens, UniProt O43251-10, residues 100-194)", "technique": "RNA Bind-n-Seq", "form": "RNA", "sample": "in vitro", "concentration": "365 nM", "setting": "natural RNA segment, single round, ends assumed", "baseline": "no-protein control", "direction": "higher = stronger binding", "shared flanks, not repeated": "GGGAGUUCUACAGUCCGACGAUC … UGGAAUUCUCGGGUGCCAA"}
{"Strand": "UGUCAUUUGGGGGAUGGAAUGAACAGUCACUGUUCUAUAGCAUCCUCCUGUGCUCUUACCUAAGGAAUCUAAAUUGUCCUAGCCUUCCAUUGCUAUGCACUGAAUGAGGA", "RBNS enrichment (R)": 0.528}
{"Strand": "CAUGUGGCAGGAAAGAAGCACCGAUUUCAAGAAUUACUUCCUAGAGAAAGUCAGGAACUAGAGACCAGAGUCUGCAGGAACUUUGCCACUGCCCUUCACUGGCUAAUCCU", "RBNS enrichment (R)": 0.723}
{"Strand": "UGGACCACCCCUGGUGUGUAGCUAGUAAGAUUACCCUGAGCUGCAGCUGAGCCUGAGCCAAUGGGACAGUUACACUUGACAGACAAAGAUGGUGGAGAUUGGCAUGCCAU", "RBNS enrichment (R)": 1.38}
{"Strand": "ACACCCAUCCCAGGGGCUACGGCAACCGACAGAACAUGGGUAGUCAUGCCAGAAGGCCAAAGGACAGCGUGGUGCACACCUUCACACCAAGGACAACUUCAGGAGGGUGC", "RBNS enrichment (R)": 0.438}
{"Strand": "UACUUCCAGGCUGCAAGGUUUUGAAAUUUUCUGUACAGUUUGUGAGGACAUUUGCACUUUGCCACUCAAUGUCGUACCUCGGUUCACUGUUUGUUUUUGAAUGCCCUGUU", "RBNS enrichment (R)": 1.15}
{"Strand": "GGGUAACAGCUGAAACAAACGGAAGUUUUUGUACCAAAGUGGCCGGAGGUGGGGAAGAACUACUUUCGAGAAUUGUUACGGAGGCAGGUUGAGGGGACACUUUGACCCUC", "RBNS enrichment (R)": 0.426}
{"data": "Other studies, line by line"}
{"Substance": "PhoQ, residues 284 288 289 292 302 303 NLCILV", "target": "PhoP, residues 12 14 15 18 19 NQGLL (Escherichia coli, UniProt P23836)", "assay": "Sort-seq, item: YFP reporter", "test system": "E. coli", "conditions": "PhoQ-PhoP variant library, added: 10 µM Mg2+", "scale": "baseline: high Mg2+ state, higher = stronger signaling", "quantity": "fold induction", "value": 8.53}
{"note": "Excerpt of the above (sample 2):"}
{"Modification": "2'F-ANA at 1 2 3 4 5 6 10 11 14", "mean fluorescence intensity": "48 a.u."}
{"Modification": "2'F-ANA at 2 3 4 5 10 14 15", "mean fluorescence intensity": "49 a.u."}
{"Modification": "2'F-ANA at 4 5 6 8 10 11 12 15", "mean fluorescence intensity": "50.5 a.u."}
